Measurements from different studies.
Compare with care: the assays were run in different laboratories. “And” joins repeats or separate records; there may be more than shown. Numbers after ± are the reported error.

SMILES	organism	assay	system	setting	how to read	measurement	value
CN1CCN(C(=O)N[C@@H](Cc2ccccc2)C(=O)N[C@H](/C=C/S(=O)(=O)c2ccccc2)CCc2ccccc2)CC1	Sudan ebolavirus	pseudovirus entry	HEK293T	SUDV	–	IC50	1.14 ± 0.07 nM
Cc1ccc(N2CC(N3CCC(C)(O)CC3)C2)cc1C(=O)NC1(c2ccc3c4c(cccc24)CC3)CC1	SARS-CoV-2	viral replication	Vero C1008, wild type	0.1543 µM	–	inhibition	10%
N#Cc1ncn(COCCO)c1C#N	Mammarenavirus lassaense	viral replication	Vero	48 h	–	IC90	> 50 µg/mL
C[N+]1=C2C(c3ccccc3)=[N+]([O-])c3ccccc3N2CCC1	Clostridium perfringens	–	–	–	–	MIC	16 to 32 µg/mL
CN[C@@H]1[C@H](O)[C@H](NC)[C@H]2O[C@]3(O)[C@H](O[C@@H]2[C@H]1O)O[C@H](C)C[C@@]3(O)CNCc1ccc(OC(F)(F)F)cc1	Legionella pneumophila	–	ATCC 33153	40 µg per disc, 48 h	–	inhibition zone diameter	21 mm
CC[C@H](C)[C@H](NC(=O)[C@H](CCCCN)NC(=O)[C@H](CCCCN)NC(=O)[C@H](CC(C)C)NC(=O)[C@H](Cc1c[nH]c2ccccc12)NC(=O)CN)C(=O)NCC(=O)N[C@@H](CCCCN)C(=O)N[C@@H](CCCCN)C(=O)N[C@H](C(=O)N[C@@H](CCC(=O)O)C(=O)N[C@@H](CCCNC(=N)N)C(=O)N[C@H](C(=O)NCC(=O)N[C@@H](CCC(N)=O)C(=O)N[C@@H](Cc1c[nH]cn1)C(=O)N[C@H](C(=O)N[C@@H](CCCNC(=N)N)C(=O)N[C@@H](CC(=O)O)C(=O)N[C@@H](C)C(=O)N[C@H](C(=O)N[C@H](C(=O)N[C@@H](CCC(N)=O)C(=O)N[C@H](C(=O)N[C@H](C(=O)NCC(=O)N[C@H](C(=O)N[C@@H](C)C(=O)N[C@@H](CCC(N)=O)C(=O)N[C@@H](CCC(N)=O)C(=O)N[C@@H](C)C(=O)N[C@@H](C)C(=O)N[C@@H](CC(N)=O)C(=O)N[C@H](C(=O)N[C@@H](C)C(=O)N[C@@H](C)C(=O)N[C@H](C(=O)N[C@@H](CC(C)C)C(=O)N[C@@H](CCCCN)C(N)=O)[C@@H](C)O)C(C)C)C(C)C)[C@@H](C)CC)[C@@H](C)O)[C@@H](C)CC)[C@@H](C)O)[C@@H](C)O)C(C)C)[C@@H](C)CC	Enterobacteriaceae, Acinetobacter baumannii	–	reference strains, CAMHB	–	–	MIC	4 µg/mL
CC(C)(C)NC(=O)[C@@H](c1cccnc1)N(C(=O)c1ccco1)c1ccc(C(C)(C)C)cc1	SARS-CoV-2	RT-qPCR, refers to: viral RNA	Vero	10 µM	higher means less virus	Ct value	25.1 cycles
Cc1ccc(NS(=O)(=O)c2c(C(=O)N3CCCCCC3)c(C)n(C)c2C)c(Cl)c1	Vaccinia virus	viral infection	HaCaT	11.11 µM, 36 h	reference: untreated	infection	0.858% and 1.02% and 0.533%
CC(C)CC(C(=O)N1CC2(CC1C#N)C(=O)Nc1ccccc12)N(C)C(=O)c1cc2c(F)cc(F)c(F)c2[nH]1 (stereo not shown)	SARS-CoV-2	viral replication, infectious virus	Vero E6	0.37 µM	–	inhibition	100%
C[C@@H]1CCCN1CCc1cc2cc(-c3ccc(C#N)cc3)ccc2o1	Naegleria fowleri	alamarBlue	ATCC 30808	48 h, trophozoites	–	IC90	14.7 ± 4.09 µM
NC(=O)c1ncn([C@@H]2O[C@H](CO)[C@@H](O)[C@H]2O)n1	Lassa mammarenavirus	viral replication	Huh-7	concentration not given	–	Emax	99.2 ± 0.94%
C[N+]1=C2C(c3ccc(Cl)cc3)=[N+]([O-])c3ccccc3N2CCC1	Clostridium butyricum	–	–	–	–	MIC	4 µg/mL
O=C(c1ccccc1O)c1[nH]c(Cl)c(Cl)c1-n1c(C(=O)c2ccccc2O)cc(Cl)c1Cl	Yersinia pseudotuberculosis	–	ATCC 6904	–	–	MIC	> 64 µM
N#Cc1ncn(COCCBr)c1C#N	Mammarenavirus lassaense	viral replication	Vero	48 h	–	IC90	29 µg/mL
C[N+]1=C2C(c3ccc([N+](=O)[O-])cc3)=[N+]([O-])c3ccccc3N2CCC1	Clostridium perfringens	–	–	–	–	MIC90	1 µg/mL
COc1cccc(NC(=S)NNC(=O)c2ccccn2)n1	MERS-CoV	viral replication, refers to: upE gene	–	concentration not given	–	upE transcript level	decreased
N#Cc1ncn(C2OC(CO)C(O)C2O)c1C#N (stereo not shown)	Mammarenavirus lassaense	viral replication, inhibitor	Vero	48 h	–	IC50	> 50 µg/mL
CC(C)C1=CC2=CC[C@@H]3[C@](C)(CCC[C@@]3(C)C(=O)OCC#CCN3CCCC3)[C@H]2CC1	SARS-CoV-2 pseudovirus	–	BHK-21-hACE2	20 µM	–	infected cells	decreased
O=[N+]([O-])c1ccc(-n2nc(-c3ccccc3)cc2-c2ccc(F)cc2)c([N+](=O)[O-])c1	Japanese encephalitis virus	–	SA14-14-2, BALB/c mice, spleen	ip, 100 mg/kg/day	reference: untreated	viral RNA reduction	> 41%
O=S(=O)(O)c1c2ccccc2c(-c2c3nc(c(-c4c5ccccc5c(S(=O)(=O)O)c5ccccc45)c4ccc([nH]4)c(-c4c5ccccc5c(S(=O)(=O)O)c5ccccc45)c4nc(c(-c5c6ccccc6c(S(=O)(=O)O)c6ccccc56)c5ccc2[nH]5)C=C4)C=C3)c2ccccc12	vaccinia virus	viral replication	BSC-40, Western Reserve	–	–	EC50	0.15 ± 0.03 µg/mL
CCOP(=O)(CCOCn1cnc(C#N)c1C#N)OCC	Mammarenavirus lassaense	viral replication	Vero	48 h	–	IC90	27 µg/mL
CC(NC(=O)C(Cc1ccccc1)NC(=O)OCc1ccccc1)C(=O)CF (stereo not shown)	SARS-CoV-2 USA_WA1/2020	–	Vero E6	concentration not given, 72 h	–	inhibition of cytopathic effect	105%
